Assay results collected from several papers.
Numbers after ± are the reported error.
TGFBR1: TGF-beta receptor type-1 (TGFBR1, Homo sapiens, UniProt P36897)
Chain of UniProt P36897 (whole entry, looked up): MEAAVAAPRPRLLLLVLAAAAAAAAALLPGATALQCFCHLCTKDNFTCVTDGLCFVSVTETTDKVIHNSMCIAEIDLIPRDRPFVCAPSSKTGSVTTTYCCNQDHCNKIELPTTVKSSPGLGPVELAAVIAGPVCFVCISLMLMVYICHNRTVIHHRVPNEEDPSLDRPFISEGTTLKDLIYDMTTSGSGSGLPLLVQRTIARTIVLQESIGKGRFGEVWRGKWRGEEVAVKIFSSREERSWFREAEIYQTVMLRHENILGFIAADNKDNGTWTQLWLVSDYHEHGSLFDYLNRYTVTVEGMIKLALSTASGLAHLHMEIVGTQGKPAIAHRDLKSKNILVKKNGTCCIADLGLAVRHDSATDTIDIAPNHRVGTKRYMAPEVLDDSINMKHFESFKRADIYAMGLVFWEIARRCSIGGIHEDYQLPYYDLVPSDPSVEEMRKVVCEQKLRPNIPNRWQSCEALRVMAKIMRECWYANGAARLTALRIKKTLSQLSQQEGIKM
Isochorismatase domain-containing protein 1: Isochorismatase domain-containing protein 1 (Homo sapiens, UniProt Q96CN7)
Chain of UniProt Q96CN7 (whole entry, looked up): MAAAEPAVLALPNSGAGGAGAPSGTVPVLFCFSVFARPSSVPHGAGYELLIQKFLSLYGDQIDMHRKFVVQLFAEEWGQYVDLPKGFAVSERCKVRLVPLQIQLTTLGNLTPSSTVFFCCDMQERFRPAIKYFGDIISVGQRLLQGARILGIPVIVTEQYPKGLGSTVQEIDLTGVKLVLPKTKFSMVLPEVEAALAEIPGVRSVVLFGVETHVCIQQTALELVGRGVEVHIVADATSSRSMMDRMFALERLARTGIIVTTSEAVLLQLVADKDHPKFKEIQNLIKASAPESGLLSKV
PLEKHA4 PH domain: Pleckstrin homology domain-containing family A member 4, PH domain (PLEKHA4, Homo sapiens, UniProt Q9H4M7)
Chain of UniProt Q9H4M7 (whole entry, looked up): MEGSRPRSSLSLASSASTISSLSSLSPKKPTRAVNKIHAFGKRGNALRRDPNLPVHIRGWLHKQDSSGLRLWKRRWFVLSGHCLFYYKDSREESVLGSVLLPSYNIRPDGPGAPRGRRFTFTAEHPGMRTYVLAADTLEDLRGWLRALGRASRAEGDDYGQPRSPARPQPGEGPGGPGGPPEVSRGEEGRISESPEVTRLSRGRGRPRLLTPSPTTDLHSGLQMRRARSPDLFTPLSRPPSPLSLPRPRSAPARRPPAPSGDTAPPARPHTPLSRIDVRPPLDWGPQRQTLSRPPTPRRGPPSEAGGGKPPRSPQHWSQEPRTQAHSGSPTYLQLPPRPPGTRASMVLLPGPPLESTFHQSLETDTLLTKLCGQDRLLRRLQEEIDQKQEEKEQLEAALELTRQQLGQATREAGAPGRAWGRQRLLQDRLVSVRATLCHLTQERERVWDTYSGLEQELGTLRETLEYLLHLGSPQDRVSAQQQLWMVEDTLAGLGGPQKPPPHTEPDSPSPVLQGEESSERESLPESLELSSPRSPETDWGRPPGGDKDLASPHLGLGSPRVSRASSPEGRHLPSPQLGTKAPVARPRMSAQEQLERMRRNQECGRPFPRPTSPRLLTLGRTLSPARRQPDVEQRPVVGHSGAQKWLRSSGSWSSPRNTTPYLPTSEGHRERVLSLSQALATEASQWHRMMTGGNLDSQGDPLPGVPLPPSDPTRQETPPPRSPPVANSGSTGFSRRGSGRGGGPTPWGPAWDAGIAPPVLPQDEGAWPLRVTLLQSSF
Chain of UniProt Q9UKS7 (whole entry, looked up): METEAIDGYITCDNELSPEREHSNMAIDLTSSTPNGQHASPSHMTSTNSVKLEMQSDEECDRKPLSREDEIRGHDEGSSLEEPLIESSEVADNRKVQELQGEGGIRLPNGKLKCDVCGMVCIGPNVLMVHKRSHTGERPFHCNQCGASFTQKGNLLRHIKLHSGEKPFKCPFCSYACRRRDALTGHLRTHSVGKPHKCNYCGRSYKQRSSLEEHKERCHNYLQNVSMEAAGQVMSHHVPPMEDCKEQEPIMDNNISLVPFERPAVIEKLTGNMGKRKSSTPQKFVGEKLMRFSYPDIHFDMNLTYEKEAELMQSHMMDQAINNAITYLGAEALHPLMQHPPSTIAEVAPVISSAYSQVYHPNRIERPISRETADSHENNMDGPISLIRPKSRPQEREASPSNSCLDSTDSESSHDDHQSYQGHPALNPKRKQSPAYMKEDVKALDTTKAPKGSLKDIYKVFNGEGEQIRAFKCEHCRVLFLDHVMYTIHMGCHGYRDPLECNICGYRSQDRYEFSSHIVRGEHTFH
Chain of UniProt P53667 (whole entry, looked up): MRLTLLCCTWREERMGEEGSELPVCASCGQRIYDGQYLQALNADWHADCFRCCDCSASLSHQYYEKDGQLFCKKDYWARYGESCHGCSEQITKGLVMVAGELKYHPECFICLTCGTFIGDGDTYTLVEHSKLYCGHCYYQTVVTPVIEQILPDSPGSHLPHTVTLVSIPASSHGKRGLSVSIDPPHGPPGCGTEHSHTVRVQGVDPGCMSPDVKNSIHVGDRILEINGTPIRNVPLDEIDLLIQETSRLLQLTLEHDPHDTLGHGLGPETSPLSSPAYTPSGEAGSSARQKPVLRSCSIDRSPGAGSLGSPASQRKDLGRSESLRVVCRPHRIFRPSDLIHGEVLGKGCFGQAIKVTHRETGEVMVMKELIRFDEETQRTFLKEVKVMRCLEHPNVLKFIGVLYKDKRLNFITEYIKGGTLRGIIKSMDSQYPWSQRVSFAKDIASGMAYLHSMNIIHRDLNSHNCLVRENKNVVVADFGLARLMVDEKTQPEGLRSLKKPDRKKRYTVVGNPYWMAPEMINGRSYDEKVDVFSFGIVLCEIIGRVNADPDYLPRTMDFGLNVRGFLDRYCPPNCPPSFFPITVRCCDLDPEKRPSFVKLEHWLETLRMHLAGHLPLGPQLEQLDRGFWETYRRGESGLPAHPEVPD
Chain of UniProt Q96SW2 (whole entry, looked up): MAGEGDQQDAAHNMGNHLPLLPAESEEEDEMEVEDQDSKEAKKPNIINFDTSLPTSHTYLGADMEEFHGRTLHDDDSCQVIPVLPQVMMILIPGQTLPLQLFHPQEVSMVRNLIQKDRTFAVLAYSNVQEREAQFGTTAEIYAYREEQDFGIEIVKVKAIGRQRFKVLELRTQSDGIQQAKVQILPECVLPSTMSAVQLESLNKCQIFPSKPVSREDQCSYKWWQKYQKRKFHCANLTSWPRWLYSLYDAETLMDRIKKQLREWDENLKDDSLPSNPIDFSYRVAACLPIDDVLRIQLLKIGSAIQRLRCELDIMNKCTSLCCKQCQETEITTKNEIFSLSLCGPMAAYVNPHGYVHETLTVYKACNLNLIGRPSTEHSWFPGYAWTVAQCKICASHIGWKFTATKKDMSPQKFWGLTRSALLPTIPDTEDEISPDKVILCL
Chain of UniProt Q16566 (whole entry, looked up): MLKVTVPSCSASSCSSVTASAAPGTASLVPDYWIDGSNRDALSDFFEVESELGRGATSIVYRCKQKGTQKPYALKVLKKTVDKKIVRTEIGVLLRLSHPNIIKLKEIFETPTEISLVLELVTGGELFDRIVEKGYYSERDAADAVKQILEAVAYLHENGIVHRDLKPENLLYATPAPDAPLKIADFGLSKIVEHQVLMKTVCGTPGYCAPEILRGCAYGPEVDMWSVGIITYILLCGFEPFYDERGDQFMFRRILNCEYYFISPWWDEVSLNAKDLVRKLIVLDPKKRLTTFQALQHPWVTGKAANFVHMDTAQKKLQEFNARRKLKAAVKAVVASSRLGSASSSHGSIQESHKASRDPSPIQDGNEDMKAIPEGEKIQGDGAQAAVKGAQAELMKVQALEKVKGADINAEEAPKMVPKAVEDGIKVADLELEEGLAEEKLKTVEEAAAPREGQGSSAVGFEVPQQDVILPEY
Chain of UniProt P14635 (whole entry, looked up): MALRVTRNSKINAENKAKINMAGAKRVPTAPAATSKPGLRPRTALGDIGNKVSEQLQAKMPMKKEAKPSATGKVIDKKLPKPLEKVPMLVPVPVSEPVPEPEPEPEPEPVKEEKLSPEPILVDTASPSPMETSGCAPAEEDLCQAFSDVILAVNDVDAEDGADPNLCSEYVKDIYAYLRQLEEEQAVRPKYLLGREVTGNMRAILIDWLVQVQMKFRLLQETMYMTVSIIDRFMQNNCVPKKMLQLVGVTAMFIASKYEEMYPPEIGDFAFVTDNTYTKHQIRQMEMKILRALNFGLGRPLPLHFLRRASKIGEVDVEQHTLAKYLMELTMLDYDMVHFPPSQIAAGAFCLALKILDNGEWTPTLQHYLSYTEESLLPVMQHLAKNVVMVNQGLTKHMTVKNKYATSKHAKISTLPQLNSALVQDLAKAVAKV
Chain of UniProt Q15391 (whole entry, unmodified, looked up): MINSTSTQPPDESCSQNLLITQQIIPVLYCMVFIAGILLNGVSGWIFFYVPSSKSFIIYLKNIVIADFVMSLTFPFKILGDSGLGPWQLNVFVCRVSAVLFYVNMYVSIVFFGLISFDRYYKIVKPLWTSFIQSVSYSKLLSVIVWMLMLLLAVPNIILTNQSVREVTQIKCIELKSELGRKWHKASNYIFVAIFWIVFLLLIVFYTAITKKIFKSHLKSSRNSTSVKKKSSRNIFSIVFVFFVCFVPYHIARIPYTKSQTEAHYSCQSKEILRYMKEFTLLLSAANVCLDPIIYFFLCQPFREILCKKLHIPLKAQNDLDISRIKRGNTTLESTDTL
Chain of UniProt O00154 (whole entry, looked up): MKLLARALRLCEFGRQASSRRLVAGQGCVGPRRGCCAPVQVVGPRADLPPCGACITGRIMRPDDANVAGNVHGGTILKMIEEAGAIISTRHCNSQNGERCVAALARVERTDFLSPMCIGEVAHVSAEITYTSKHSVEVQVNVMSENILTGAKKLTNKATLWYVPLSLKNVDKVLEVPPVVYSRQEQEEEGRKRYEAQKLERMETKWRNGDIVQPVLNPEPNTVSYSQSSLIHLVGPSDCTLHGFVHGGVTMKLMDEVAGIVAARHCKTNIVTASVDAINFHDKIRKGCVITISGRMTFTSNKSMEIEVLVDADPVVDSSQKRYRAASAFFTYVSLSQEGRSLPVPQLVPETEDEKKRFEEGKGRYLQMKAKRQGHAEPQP

Cc1ccccc1-c1nc(-c2ccc(F)cc2)c(-c2ccncc2)[nH]1 — IC50 (TGFBR1; binding, LanthaScreen kinase binding): 0.145 ± 0.0063 µM
Brc1cnc(Nc2cccc(CN3CCOCC3)c2)nc1NCCc1c[nH]cn1 — number of kinases inhibited (16-kinase panel; radiometric; 1 µM, ATP at Km; below 10% of control): 13
CCCN1CCN(c2ccc(-c3cncc(Cl)c3N3CCC4(CCNC4=O)CC3)cc2)CC1 — Kd (G2/mitotic-specific cyclin-B1 (Homo sapiens, UniProt P14635); SILAC displacement; LS174T-L5 cell lysate): 7.04 µM
O=C(/C=C/c1cccc(S(=O)(=O)Nc2ccccc2)c1)NO — Kd (Isochorismatase domain-containing protein 1; inhibitor, competition pulldown; SW620 and MV4-11 lysate; 1 h): > 30.2 µM
Cc1nn(CC(F)(F)F)cc1Nc1ncc(C2CC2)c(NCc2ccc(S(N)(=O)=O)cc2)n1 — number of kinases inhibited (16-kinase panel; radiometric; 1 µM, ATP at Km; below 10% of control): 1
COc1cc2c(c(OC)c1OC)-c1c(cc(OC)c(OC)c1OC)C[C@H](C)[C@H](C)C2 — αKi (CYP3A, rat; poziotinib metabolism to M2, inhibitor; rat liver microsomes; together with: poziotinib): 5.98 µM
NS(=O)(=O)c1ccc(CNc2nc(Nc3cccc(NC(=O)N4CCCC4)c3)ncc2C2CC2)cc1 — number of kinases inhibited (16-kinase panel; radiometric; 1 µM, ATP at Km; below 10% of control): 1
O=C(NO)c1cnc(NC2(c3ccccc3)CC2)nc1 — Kd (Isochorismatase domain-containing protein 1; inhibitor, competition pulldown; SW620 and MV4-11 lysate; 1 h): > 30.2 µM
COc1ccc(C(=O)CC(SCc2ccc(Cl)cc2)C(=O)O)cc1 (stereo not drawn) — Ki (PLEKHA4 PH domain; PLEKHA4 PI(4,5)P2 binding, fluorescence polarization; together with: BODIPY-PI(4,5)P2 tracer): 167 ± 44 µM
CC[C@H](C)[C@H](NC(=O)[C@H](CC(C)C)NC(=O)[C@H](Cc1ccc(OP(=O)(O)O)cc1)NC(=O)[C@H](CCC(=O)O)NC(=O)[C@H](CC(=O)O)NC(=O)[C@H](C)NC(=O)[C@H](CC(=O)O)NC(=O)[C@@H](NC(=O)[C@@H](NC(=O)[C@H](CC(=O)O)NC(=O)[C@H](CC(=O)O)NC(=O)[C@H](CCSC)NC(=O)c1ccc2c(c1)C(=O)OC21c2ccc(N(C)C)cc2Oc2cc(N(C)C)ccc21)C(C)C)C(C)C)C(=O)N1CCC[C@H]1C(=O)N[C@@H](CCC(N)=O)C(=O)N[C@@H](CCC(N)=O)C(=O)NCC(=O)N[C@@H](Cc1ccccc1)C(=O)N[C@@H](CC(=O)O)C(=O)O — Kd (Tyrosine-protein kinase Blk, SH2 domain (BLK, Homo sapiens, UniProt P51451); binding): 0.658 µM
O=c1ccn([C@@H]2O[C@H](COP(=O)(O)OP(=O)(O)O[C@H]3O[C@H](CO)[C@@H](O)[C@H](O)[C@H]3O)[C@@H](O)[C@H]2O)c(=S)[nH]1 — Ki (P2Y purinoceptor 14 (P2RY14, Homo sapiens, UniProt Q15391, Y256A)): > 3 µM
O=C(NCCCNc1nc(Nc2cccc(NC(=O)N3CCCC3)c2)ncc1C1CC1)C1CCC1 — number of kinases inhibited (16-kinase panel; radiometric; 1 µM, ATP at Km; below 10% of control): 9
C#CCOc1cccc(C(=O)CC(SCc2cccc(Br)c2)C(=O)O)c1 (stereo not drawn) — Ki (PLEKHA4 PH domain; PLEKHA4 PI(4,5)P2 binding, fluorescence polarization; together with: BODIPY-PI(4,5)P2 tracer): 39 ± 7.1 µM
CC[C@@H]1[C@H](F)C(=O)N[C@@H]1COc1nccc2cc(C(N)=O)c(OC)cc12 — IC50 (CAMK4 (Homo sapiens, UniProt Q16566); ATP-site probe binding, ActivX profiling; THP-1 cell lysate; Lys2 site): > 5 µM
Cc1ccc(S(=O)(=O)Nc2ccc(F)cc2NS(=O)(=O)c2ccc(C)cc2)cc1 — IC50 (Protein lin-28 homolog A (Mus musculus, UniProt Q8K3Y3)): 15.5 µM
CCOc1ccc(C(=O)CC(SCc2ccccc2)C(=O)O)cc1 (stereo not drawn) — Ki (PLEKHA4 PH domain; PLEKHA4 PI(4,5)P2 binding, fluorescence polarization; together with: BODIPY-PI(4,5)P2 tracer): 219 ± 17 µM
O=C(NCCCNc1ccnc(Nc2cccc(NC(=O)N3CCCC3)c2)n1)C1CCC1 — number of kinases inhibited (16-kinase panel; radiometric; 1 µM, ATP at Km; below 10% of control): 0
COc1ccc(-c2nc(N3CCOCC3)c3sc(CN(C)c4ncc(C(=O)NO)cn4)cc3n2)cn1 — Kd (Isochorismatase domain-containing protein 1; inhibitor, competition pulldown; SW620 and MV4-11 lysate; 1 h): > 30.2 µM
CCOc1ccc(C(=O)CC(SCc2ccc(OC)cc2)C(=O)O)cc1 (stereo not drawn) — Ki (PLEKHA4 PH domain; PLEKHA4 PI(4,5)P2 binding, fluorescence polarization; together with: BODIPY-PI(4,5)P2 tracer): 222 ± 23 µM
Fc1ccc(-c2nc(-c3ccc4ccccc4c3Br)[nH]c2-c2ccncc2)cc1 — IC50 (TGFBR1; binding, LanthaScreen kinase binding): 0.0756 ± 0.0093 µM
Cc1nn(CC(F)(F)F)cc1Nc1ncc(Br)c(NCc2ccc(S(N)(=O)=O)cc2)n1 — number of kinases inhibited (16-kinase panel; radiometric; 1 µM, ATP at Km; below 10% of control): 12
CC(C)(COP(=O)(O)OP(=O)(O)OC[C@H]1O[C@@H](n2cnc3c(N)ncnc32)[C@H](O)[C@@H]1OP(=O)(O)O)[C@@H](O)C(=O)NCCC(=O)NCCS — Kd (Cytosolic acyl coenzyme A thioester hydrolase (Homo sapiens, UniProt O00154); competitor, competition MS pulldown; SW-620 cell lysate; together with: photo-immobilized beads): 0.631 µM
Cc1nn(CC(F)(F)F)cc1Nc1nccc(NCCc2cnc[nH]2)n1 — number of kinases inhibited (16-kinase panel; radiometric; 1 µM, ATP at Km; below 10% of control): 0
CC(=O)Nc1ccc(C(=O)Nc2ccccc2N)cc1 — Kd (Isochorismatase domain-containing protein 1; inhibitor, competition pulldown; SW620 and MV4-11 lysate; 1 h): > 30.2 µM
CC(=O)c1c(C)c2cnc(Nc3ccc(N4CCN(CCCOc5ccc(CN6CCC(c7ccc8c(c7)CN(C7CCC(=O)NC7=O)C8=O)CC6)cc5)CC4)cn3)nc2n(C2CCCC2)c1=O (stereo not drawn) — DC50 (CRBN/Zinc finger protein Helios (Homo sapiens, UniProt Q96SW2+Q9UKS7); protein degradation, degrader, immunoblot; Jurkat; 4 h): 0.099 µM
CCOC(=O)c1cc(-c2ccc(OCC)cc2)oc1-c1ccc(Cl)cc1 — Ki (PLEKHA4 PH domain; PLEKHA4 PI(4,5)P2 binding, fluorescence polarization; together with: BODIPY-PI(4,5)P2 tracer): > 100 µM
C/C=C1\NC(=O)[C@H]2CSSCC/C=C/[C@H](CC(=O)N[C@H](C(C)C)C(=O)N2)OC(=O)[C@H](C(C)C)NC1=O — Kd (Isochorismatase domain-containing protein 1; inhibitor, competition pulldown; SW620 and MV4-11 lysate; 1 h): > 30.2 µM
COc1cc2c(c(OC)c1OC)-c1c(cc3c(c1OC)OCO3)CC(C)C(C)C2 (stereo not drawn) — αKi (CYP3A, rat; poziotinib metabolism to M1, inhibitor; rat liver microsomes; together with: poziotinib): 6.18 µM
NS(=O)(=O)c1ccc(CNc2nc(Nc3cccc(CN4CCOCC4)c3)ncc2Br)cc1 — number of kinases inhibited (16-kinase panel; radiometric; 1 µM, ATP at Km; below 10% of control): 4
CN1CCN(c2ccc(Nc3ncc4cc(C#N)c(=O)n(C5CCCC5)c4n3)cc2)CC1 — IC50 (LIM domain kinase 1 (LIMK1, Homo sapiens, UniProt P53667)): 0.0855 µM

Some of these lines once more:
O=c1ccn([C@@H]2O[C@H](COP(=O)(O)OP(=O)(O)O[C@H]3O[C@H](CO)[C@@H](O)[C@H](O)[C@H]3O)[C@@H](O)[C@H]2O)c(=S)[nH]1 — Ki (P2Y purinoceptor 14 (P2RY14, Homo sapiens, UniProt Q15391, Y256A)): > 3 µM
O=C(NCCCNc1nc(Nc2cccc(NC(=O)N3CCCC3)c2)ncc1C1CC1)C1CCC1 — number of kinases inhibited (16-kinase panel; radiometric; 1 µM, ATP at Km; below 10% of control): 9
